Results of several laboratories.
Each line is one published result; not all experiments were run side by side.
Cell line: L929

CC(=O)Nc1ccc(OC(=O)CCC(=O)[O][Pt-2]23([O]C(=O)CCC(=O)Oc4ccc(NC(C)=O)cc4)([NH2+][C@@H]4CCCC[C@H]4[NH2+]2)[O]C(=O)C(=O)[O]3)cc1
IC50 (cell growth or viability, MTT; 48 h): 78 µM

CCCCCCCCn1c(-c2cccnc2)nc(-c2ccccc2)c1-c1ccccc1
IC50 (cell growth or viability, SRB): 61.7 µM

COC(=O)c1ccc(-n2nc(C(F)(F)F)cc2-c2cc(OC)c(OC)c(OC)c2)cc1
IC50 (cell growth or viability, SRB): 14 µM

Cc1ccc(-c2nc(-c3cccnc3)[nH]c2-c2ccc(C)cc2)cc1
IC50 (cell growth or viability, SRB): 88.4 µM

Cn1cncn1.[Ru+2].c1cc(-c2ccc3ccccc3n2)nc(-c2ccc3ccccc3n2)c1.c1ccc2cc3nc4c5cccnc5c5ncccc5c4nc3cc2c1
EC50 (cell growth or viability, MTT; dark): 36 µM

C=C(C)C(=O)NCCCCCCCCCCOCc1cn(CCCCCCCCCCNC(=O)C(=C)C)n[n+]1C
IC50 (cell growth or viability; 72 h): 20.4 µM

COc1cc(C(=O)c2[nH]c(N)nc2-c2cccs2)cc(OC)c1OC
IC50 (cell growth or viability, SRB): 1.66 µM

CCCCCCCCC=CCCCCCCCCn1c(-c2cccnc2)nc(-c2ccc(C)cc2)c1-c1ccc(C)cc1
IC50 (cell growth or viability, SRB): 87.6 µM

Cc1ccc(C(C)C)cc1.[Cl][Ru]([Cl])[P](CP(c1ccccc1)c1ccccc1)(c1ccccc1)c1ccccc1
IC50 (cell growth or viability, trypan blue; 48 h): 39.6 µM

CCCCn1c(-c2cccnc2)nc(-c2ccc(C)cc2)c1-c1ccc(C)cc1
IC50 (cell growth or viability, SRB): 48.1 µM

CN1C(=O)N[C@H](Cc2c[nH]c3c(Cl)cccc23)C1=O
EC50 (necroptosis protection; 16 h, added: TNFα 40 ng/mL): 0.112 µM

[Cl][Au]1[P](c2ccccc2)(c2ccccc2)C[P](c2ccccc2)(c2ccccc2)[Au]([Cl])[P](c2ccccc2)(c2ccccc2)C[P]1(c1ccccc1)c1ccccc1
IC50 (cell growth or viability, trypan blue; 48 h): 1.7 µM

COC(=O)c1ccc2c(c1)NC(=O)/C2=C(\Nc1ccc(N(C)C(=O)CN2CCN(CCOCCOCCNC(=O)c3cc(OCc4cn(CCCCN5C[C@@H]6C[C@H]5C(=O)N[C@@H](CC(C)C)C(=O)N[C@@H](CCCNC(=N)N)C(=O)NCC(=O)N[C@@H](CC(=O)O)C(=O)N[C@@H](CC(C)C)C(=O)N6)nn4)cc(OCc4cn(CCCCN5C[C@@H]6C[C@H]5C(=O)N[C@@H](CC(C)C)C(=O)N[C@@H](CCCNC(=N)N)C(=O)NCC(=O)N[C@@H](CC(=O)O)C(=O)N[C@@H](CC(C)C)C(=O)N6)nn4)c3)CC2)cc1)c1ccccc1
mean fluorescence intensity (cell internalization, flow cytometry; 5 µM, 24 h): decreased

For quick reference, copied from above:
CCCCn1c(-c2cccnc2)nc(-c2ccc(C)cc2)c1-c1ccc(C)cc1
IC50 (cell growth or viability, SRB): 48.1 µM
